Measured values collected from several papers.
Parts stem from different laboratories: compare values within a part only. Substitutions count along the parent as printed.

Set 1
Target: Prothrombin, mature alpha-thrombin (F2, Homo sapiens, UniProt P00734)
Technique: aptamer microarray, sandwich
Form: DNA with 2'F-ANA
Medium: in vitro
Tested at: 200 nM
Setting: whole 15-mer aptamer, many near background
Added: Cy3 exosite-II aptamer, 400 nM
Direction: higher = stronger binding
Sequence: GGTTGGTGTGGTTGG
| Modification | mean fluorescence intensity [a.u.] |
| --- | --- |
| 2'F-ANA at 1 2 6 9 11 14 | 48.4 |
| 2'F-ANA at 3 5 7 | 145 |
| 2'F-ANA at 1 2 4 8 11 13 15 | 102 |
| 2'F-ANA at 3 6 8 9 10 11 12 13 14 15 | 358 |
| 2'F-ANA at 2 5 6 7 11 13 15 | 147 |
| 2'F-ANA at 1 2 3 6 8 9 12 14 15 | 147 |
| 2'F-ANA at 1 6 11 13 14 15 | 54.6 |
| 2'F-ANA at 2 4 5 7 10 | 46.2 |
| 2'F-ANA at 1 2 3 4 8 13 14 15 | 68.6 |
| 2'F-ANA at 5 6 10 11 12 13 14 | 42.7 |
| 2'F-ANA at 1 2 11 12 13 | 246 |
| 2'F-ANA at 1 3 6 7 8 9 13 14 15 | 84.6 |
| 2'F-ANA at 1 3 5 7 8 9 12 14 | 45.2 |
| 2'F-ANA at 1 2 3 6 7 8 | 266 |
| 2'F-ANA at 2 7 12 14 15 | 216 |
| 2'F-ANA at 2 5 6 7 10 11 14 15 | 46.5 |
| 2'F-ANA at 1 2 3 4 11 12 13 15 | 240 |
| 2'F-ANA at 1 5 12 13 14 | 41.8 |
| 2'F-ANA at 1 2 9 10 12 13 14 | 46.1 |
| 2'F-ANA at 2 6 7 15 | 443 |
| 2'F-ANA at 2 4 7 10 | 112 |

Set 2
Target: Hepatocyte nuclear factor 3-beta, forkhead domain (FOXA2, Homo sapiens, UniProt Q9Y261, residues 142-269)
Technique: protein-binding microarray
Form: double-stranded DNA, one strand shown
Medium: in vitro
Tested at: not given
Setting: k-mer, scored over probes, only values ≥0.25
Direction: higher = stronger binding
Target sequence (chain): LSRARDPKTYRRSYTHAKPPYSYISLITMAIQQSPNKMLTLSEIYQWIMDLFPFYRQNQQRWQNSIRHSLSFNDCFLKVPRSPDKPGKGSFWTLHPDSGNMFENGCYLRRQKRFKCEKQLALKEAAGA
| Sequence | E-score |
| --- | --- |
| GTCAACTA | 0.258 |
| ATATTTAC | 0.452 |
| TGAGTAAA | 0.269 |
| CAATATTA | 0.277 |
| ATACTGGA | 0.291 |
| ATGAACTA | 0.278 |
| AATAAAAC | 0.263 |
| CAACAATC | 0.353 |
| ATCTATTA | 0.266 |
| GACAAATA | 0.395 |
| ATATACTG | 0.291 |
| AACCATAT | 0.306 |
| ATTACATC | 0.273 |
| CTACTGTA | 0.259 |
| CATGTTAA | 0.281 |
| ACGTGTAT | 0.256 |
| AATCAATA | 0.351 |
| AAACATAG | 0.266 |
| GTATCTCA | 0.301 |

Set 3
Target: Histone acetyltransferase KAT6A, winged helix 2, GST fusion (KAT6A, Homo sapiens, UniProt Q92794, residues 85-181)
Technique: protein binding microarray
Form: double-stranded DNA, one strand shown
Medium: in vitro
Tested at: not given
Setting: 8-mer, flanks averaged, mean of 2 arrays, mostly near background
Relative to: not given
Direction: higher = stronger binding
Construct (chain): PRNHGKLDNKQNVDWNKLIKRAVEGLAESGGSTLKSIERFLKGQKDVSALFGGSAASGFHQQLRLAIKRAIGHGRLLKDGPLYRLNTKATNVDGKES
| Sequence | E-score |
| --- | --- |
| AACTTCCA | -0.019 |
| GATCGGCC | 0.16 |
| GCGGATGA | 0.0622 |
| AGATAACC | -0.229 |
| CACGGGCC | 0.0561 |
| AGATTGCG | 0.119 |
| ATTGTCAA | -0.0783 |
| GGGATTAC | -0.0952 |
| ATGGAGAC | -0.0565 |
| ACGCTCCG | -0.0206 |
| CGCTGTAA | 0.17 |
| ACAACGGC | -0.0406 |
| CAGAGGTA | 0.0153 |
| GGCGCACA | 0.042 |
| ACAAAAAT | 0.0762 |
| CTCACGTC | -0.133 |

Set 4
Target: RNA binding protein fox-1 homolog 2, RRM domain, GST-SBP tag (RBFOX2, Homo sapiens, UniProt O43251-10, residues 100-194)
Technique: RNA Bind-n-Seq
Form: RNA
Medium: in vitro
Tested at: 365 nM
Setting: natural RNA segment, single round, ends assumed
Relative to: no-protein control
Direction: higher = stronger binding
Residues (chain): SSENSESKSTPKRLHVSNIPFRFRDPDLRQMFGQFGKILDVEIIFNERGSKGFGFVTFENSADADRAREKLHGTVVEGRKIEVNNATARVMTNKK
| Sequence | RBNS enrichment (R) |
| --- | --- |
| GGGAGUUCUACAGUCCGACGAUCCACAGUUUCCUGGGGAGGCCUGAGUACACACAGGCCUGUGUCAGGAGGAGGGUCAUGGCUCCAAAUCCGCUUGCCAGUCCCGCCCUCUCUCAGGUUCAGUGGGACUGCCAUGGAAUUCUCGGGUGCCAA | 0.219 |
| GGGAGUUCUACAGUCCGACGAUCAUCUGGCUGGCUGCCUGCCUUAAACCCCCACCAAAGCUCCUUUUCAUAAAGGGGCUACCUUGAGAGAAAAUACAAACGCUCUCCUGUUGAUGAUUUGUGCAUUUUAAAAAUGGAAUUCUCGGGUGCCAA | 2.65 |
| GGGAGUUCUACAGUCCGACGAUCCAAAGUUCUCCCAGGCAAGGACCAGCUGCCCAUUCUGAGCCCAGGGCAGCCUCUUCAACCAUUAUUGGUCUAACCUGGCUUGUCAGGAAACCAAGCCCACCCUUCCACAUUGGAAUUCUCGGGUGCCAA | 0.393 |
| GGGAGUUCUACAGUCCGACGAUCUUUAGCCAAGACUUGUCUUGUCUCAAAGCCAAGACUCAGCAGUACAUGGAUUCUGAGAAGUCCAGGGUCUGAAUUGUUGUCUCUGAUUACUGGAAGGACAGGUUAACUGAUGGAAUUCUCGGGUGCCAA | 0.294 |
| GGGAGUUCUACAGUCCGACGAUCUAUAGGAGCCCUUGAAUGAAGCUGUGAAUGGAGAGGUUUUCUCUAUAAACCUAUGUGGUAGCCCCCCCCCCGGCCCCCCAAAUGUCCUCAUCUCAGGGCCUCACUUUCUGUGGAAUUCUCGGGUGCCAA | 0.73 |
| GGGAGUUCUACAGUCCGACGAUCUGAAGGACAGAGUAAAGCUUCUGAAUGAGGCUCUGUGGCUUCACACUCUGUCAUCCUAUUGGCUGCUUCCCUCUACUAUUUGUAAAAUGUGUAGUGAAUUAUAACAACCUUGGAAUUCUCGGGUGCCAA | 0.207 |
| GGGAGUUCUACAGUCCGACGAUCCCAUUCAGGUUUGCUGUCACAUAUGCAUCAUCUGAAAUCAUUUGAAAUUUUUGUACAAUAAAAUAUCCUGGAUUUGAUCCUGAAGGAAACUAGUAAGAUCAGAUUUUUGGUGGAAUUCUCGGGUGCCAA | 0.517 |
| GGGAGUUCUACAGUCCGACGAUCGUCUGCAGGAGCUCAGUUGGCUACAGAGGCCUGGUUUUAGAGACCAAGCCCUCCUCUGUGUCCAGUAAAUAAUGCUUAUCCCAAGGGGCCCGUCUCCCAGGGCAUUUCCCUGGAAUUCUCGGGUGCCAA | 0.299 |
| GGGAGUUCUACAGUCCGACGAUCUCUCCUACUCAACCAGGAAGUCAUGGUUUCUGCAGUCCAGAGCCAUGGCAACUGAGAUUCUAAGCUCUCUUUGUCUCAUCCAGGCAACUUUUCUGUCUCCCAACCAAGGAUGGAAUUCUCGGGUGCCAA | 0.259 |
| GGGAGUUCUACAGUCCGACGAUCACCUUGCCUGGGACCAGCCUGGGAACCAGACACUGGGGCCCUUUCCUCACUCUUCCACUGACCCACUGUGUGACCUGAAGAGAGCCCUGCCCUCUCUGAGCCUCAGUGUUUGGAAUUCUCGGGUGCCAA | 0.561 |
| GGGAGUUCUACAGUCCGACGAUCUAUAUAUAUAUAUAUACAUAUACAUAUAUAUGUUGAGGGAGGAGUAAGAAAGAAAGCCAGGACAAUAACUGGGCCAGCAGCUCUGAAGCACACCUUCCCCGUCUGUCCCAUGGAAUUCUCGGGUGCCAA | 0.386 |
| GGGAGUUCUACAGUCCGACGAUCUAAGCAUGCUUCAAGAGGCAGUUGACCCACUGGAAUUUCUAUAAGGCUGGUACCCUUCCCAGAGUUACAGAAUCUUAGGUGCCGUCUCUAGUCUGUGAGGGAGGAACUCCUGGAAUUCUCGGGUGCCAA | 18.6 |

Set 5
Target: ABI1, truncated, D143A, DHFR fusion (Arabidopsis thaliana, UniProt P49597)
Technique: DHFR PCA, dose-response
Medium: yeast
Setting: Hill fit, mean, not affinity
Added: (+)-ABA, dose series
Direction: lower = more sensitive
Starting sequence: PYL1, truncated, DHFR fusion (Arabidopsis thaliana, UniProt Q8VZS8); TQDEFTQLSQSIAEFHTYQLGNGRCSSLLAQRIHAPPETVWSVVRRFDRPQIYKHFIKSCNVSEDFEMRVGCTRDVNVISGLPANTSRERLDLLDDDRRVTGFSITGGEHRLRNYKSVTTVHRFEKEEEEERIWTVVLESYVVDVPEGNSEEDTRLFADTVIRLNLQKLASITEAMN
| Change | ABA EC50 |
| --- | --- |
| H122R | 493 µM |
| I172D | 599 µM |
| I52T | 1.76 µM |
| E125H | 1.82 µM |
| L20P | 1.3 µM |
| I133L | 2.49 µM |
| I79E | 31.3 µM |
| F124R | 23.9 µM |
| I172L | 2.76 µM |
| L138W | 416 µM |
| M68D | 42.2 µM |
| V76A | 130 µM |
| P83C | 130 µM |
| T39G | 21.6 µM |
| T6Q | 4.84 µM |
| L20D | 1.98 µM |
| E139M | 14.7 µM |
| V43A | 58.1 µM |
| N85D | 3.25 µM |
| I133D | 0.85 µM |
| Q2K | 1.94 µM |
| A175N | 2.19 µM |
| R163L | 57.8 µM |
| R69C | 2.87 µM |
| I172C | 8.11 µM |

For quick reference, copied from above (set 1):
| Modification | mean fluorescence intensity [a.u.] |
| --- | --- |
| 2'F-ANA at 2 5 6 7 10 11 14 15 | 46.5 |
| 2'F-ANA at 1 2 4 8 11 13 15 | 102 |
| 2'F-ANA at 1 3 6 7 8 9 13 14 15 | 84.6 |
| 2'F-ANA at 1 2 9 10 12 13 14 | 46.1 |
| 2'F-ANA at 3 5 7 | 145 |
| 2'F-ANA at 1 2 3 4 11 12 13 15 | 240 |
| 2'F-ANA at 1 2 6 9 11 14 | 48.4 |
| 2'F-ANA at 5 6 10 11 12 13 14 | 42.7 |
| 2'F-ANA at 3 6 8 9 10 11 12 13 14 15 | 358 |
| 2'F-ANA at 1 2 3 4 8 13 14 15 | 68.6 |
